Measurements collected from several papers.
Each numbered part is a random draw from the data of one study; scales do not carry over between parts. Positions count from the first letter of the parent shown.

Set 1
Cell line: HaCaT
Tested at: 100 µM
Time: 36 h
SMILES | viability [%]
CCCCCCC(=O)O[C@H]1CC[C@H]2[C@@H]3CCC4=CC(=O)CC[C@]4(C)[C@H]3CC[C@]12C | 50.3
O=P1(N(CCCl)CCCl)NCCCO1 (centres unmarked) | 96.9
CCN(CC)C(C)C(=O)c1ccccc1 (centres unmarked) | 89.7
CC(C)C(Br)C(=O)NC(N)=O (centres unmarked) | 114

Set 2
Target: inorganic phosphate, free oxyanion
Method: microfluidic competitive inhibition
Medium: in vitro, cell-free expressed
Tested at: not given
Setting: derived from inhibition constants, unchanged parent 615000 nM
Reading: lower = stronger binding
Starting sequence: PafA, mature enzyme, eGFP fusion (Elizabethkingia meningoseptica, UniProt Q9KJX5); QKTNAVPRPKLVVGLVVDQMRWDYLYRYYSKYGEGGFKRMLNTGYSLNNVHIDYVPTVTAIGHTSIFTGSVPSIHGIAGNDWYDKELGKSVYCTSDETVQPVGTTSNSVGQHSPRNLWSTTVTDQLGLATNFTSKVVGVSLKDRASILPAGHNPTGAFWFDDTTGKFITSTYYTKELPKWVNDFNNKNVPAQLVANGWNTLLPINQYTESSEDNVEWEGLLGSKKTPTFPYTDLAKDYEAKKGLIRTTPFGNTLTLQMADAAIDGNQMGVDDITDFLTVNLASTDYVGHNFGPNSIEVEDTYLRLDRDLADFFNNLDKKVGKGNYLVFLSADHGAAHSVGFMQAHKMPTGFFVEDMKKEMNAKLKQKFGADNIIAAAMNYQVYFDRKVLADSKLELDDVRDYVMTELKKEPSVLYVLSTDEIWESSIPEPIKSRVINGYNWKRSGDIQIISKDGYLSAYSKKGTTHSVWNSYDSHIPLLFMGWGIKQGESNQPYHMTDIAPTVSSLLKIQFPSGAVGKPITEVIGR
Change | phosphate dissociation constant
Y207G | 304 µM
K442G | 643 µM
G350A | 567 µM
F312V | 555 µM
L303V | 659 µM
L117V | 697 µM
P430V | 558 µM
P519G | 634 µM
G197A | 585 µM
N372G | 666 µM
I52G | 499 µM
S451G | 501 µM
P114V | 554 µM
K367G | 553 µM
K242V | 532 µM
D272V | 650 µM
L507V | 599 µM
I204G | 542 µM
V327G | 543 µM
Y494G | 549 µM
G156V | 500 µM
S65G | 482 µM
V413A | 758 µM
Y28G | 405 µM
T349V | 551 µM

Set 3
Target: TAR DNA-binding protein 43, full length, His tag (TARDBP, Homo sapiens, UniProt Q13148, residues 1-414)
Method: RNA Bind-n-Seq
Form: RNA
Medium: in vitro
Tested at: 20 nM
Setting: 6-mer, flanks averaged, single round
Together with: 150 mM LiCl
Relative to: input library
Reading: higher = stronger binding
Oligonucleotide | 6-mer enrichment (R)
UUACGU | 0.989
CGUGCU | 0.925
ACUCCG | 0.899
GACCGG | 0.949
CGAGUU | 0.939
CGUCGC | 0.956
UACUCC | 0.967
ACCGAC | 0.804

Set 4
Target: UDP-N-acetylglucosamine--peptide N-acetylglucosaminyltransferase 110 kDa subunit (OGT, Homo sapiens, UniProt O15294)
Read-out: binding
Method: phage display NGS
Form: peptide
Tested at: concentration not given
Relative to: input library
Construct (O15294 1-1046): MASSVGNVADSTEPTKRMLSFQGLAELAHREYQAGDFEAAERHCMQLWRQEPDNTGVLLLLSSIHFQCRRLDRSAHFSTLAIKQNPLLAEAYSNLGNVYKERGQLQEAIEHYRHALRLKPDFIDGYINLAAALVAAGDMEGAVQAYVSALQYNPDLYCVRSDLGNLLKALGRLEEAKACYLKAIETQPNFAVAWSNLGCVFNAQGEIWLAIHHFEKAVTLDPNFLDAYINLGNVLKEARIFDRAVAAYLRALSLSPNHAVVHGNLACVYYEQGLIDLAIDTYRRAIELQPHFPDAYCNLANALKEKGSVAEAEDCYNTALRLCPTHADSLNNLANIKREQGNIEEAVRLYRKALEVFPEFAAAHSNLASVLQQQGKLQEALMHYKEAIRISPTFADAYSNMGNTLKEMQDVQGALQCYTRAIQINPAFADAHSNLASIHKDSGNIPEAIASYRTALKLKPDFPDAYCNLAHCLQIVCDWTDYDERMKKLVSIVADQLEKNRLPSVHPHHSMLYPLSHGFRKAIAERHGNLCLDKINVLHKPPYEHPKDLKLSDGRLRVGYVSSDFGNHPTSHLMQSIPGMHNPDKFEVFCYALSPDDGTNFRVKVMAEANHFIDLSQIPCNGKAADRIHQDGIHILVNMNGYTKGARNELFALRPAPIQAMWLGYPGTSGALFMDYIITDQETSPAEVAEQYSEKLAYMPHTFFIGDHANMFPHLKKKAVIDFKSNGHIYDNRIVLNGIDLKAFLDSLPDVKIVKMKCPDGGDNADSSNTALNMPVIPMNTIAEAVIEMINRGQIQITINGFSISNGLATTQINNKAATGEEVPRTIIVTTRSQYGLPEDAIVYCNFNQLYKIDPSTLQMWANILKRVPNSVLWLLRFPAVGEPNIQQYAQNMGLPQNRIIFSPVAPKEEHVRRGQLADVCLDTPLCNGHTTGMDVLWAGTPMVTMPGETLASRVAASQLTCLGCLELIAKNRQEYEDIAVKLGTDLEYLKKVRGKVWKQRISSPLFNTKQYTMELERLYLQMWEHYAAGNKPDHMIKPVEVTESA
Sequence | enrichment fold change
HLGHPHFYNHVYHYA | 3.48
YVDWGVWHKDFNMPH | 2.3
SIIPLAHVHNDHHAH | 7.64
QPTKHFRSHHTYTAN | 7.54
WTSQWQTRHPHHHTS | 8.32
HWQRHHMDAPFQMPY | 5.04
RHTQIKHHVPHQLF | 4.12
WIFPSQHARHYNTLG | 3.44
VYSPVYQIIVNQNH | 10.7
KYTPLYQIHAMPQAV | 2.59
VHIDNWNHHHYAAVE | 6.04
DHARHPHEGTGTSHH | 6.64
YSLHIAQHHDAYTIH | 6.91
NTTHQVHRFKWHQHT | 4.07
MWQHGPMGMTSHYP | 3.08
EWGHGAYMHHNHEGP | 4.23
HLHRDIHNKYNSIVN | 2.6
TAPFYPPAYDI | 0.481
SYMPVYQIDYTPAV | 44
NNNIYWPKYQITNTL | 7.21
FIPYSPFYQIESSRY | 1.95
QNDRYLPAYVITYAR | 2.49
HYPHHDYLWHPITNV | 3.22
TGTKYVPMYQINPY | 10.6
SNKQDLMPAYQIQYG | 9.84

Some of these lines once more (set 2):
Change | phosphate dissociation constant
F312V | 555 µM
L303V | 659 µM
L117V | 697 µM
P430V | 558 µM
P519G | 634 µM
G197A | 585 µM
N372G | 666 µM
I52G | 499 µM
S451G | 501 µM
P114V | 554 µM
